Assay results of several laboratories.
Every numbered part comes from another study and shows a few of its results, in no order. Substitutions count along the parent as printed.

Sample 1
Target: RING finger protein unkempt homolog, zinc fingers 1-6, GST-SBP tag (UNK, Homo sapiens, UniProt Q9C0B0, residues 30-357)
Method: RNA Bind-n-Seq
Molecule type: RNA
Medium: in vitro
Tested at: not given
Setting: RNA with constant flanks, human and mouse sites, ends assumed
Relative to: input RNA pool
Direction: higher = stronger binding
Residues (chain): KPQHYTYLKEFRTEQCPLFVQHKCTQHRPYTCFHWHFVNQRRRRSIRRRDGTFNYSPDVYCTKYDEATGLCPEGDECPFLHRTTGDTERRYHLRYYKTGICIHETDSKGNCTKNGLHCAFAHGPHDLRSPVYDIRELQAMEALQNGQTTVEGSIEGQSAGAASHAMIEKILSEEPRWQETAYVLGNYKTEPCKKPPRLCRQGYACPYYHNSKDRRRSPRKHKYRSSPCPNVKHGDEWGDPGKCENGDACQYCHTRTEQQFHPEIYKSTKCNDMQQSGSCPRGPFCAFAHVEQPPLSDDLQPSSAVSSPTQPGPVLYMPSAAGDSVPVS
Sequence	bound/input enrichment [ratio]
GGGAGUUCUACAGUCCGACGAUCAAUAGAGAUUUGUCCACACCUGGCCUGGAGAAGGACAGUGGAGGGAAGACACCUGGUGACUUUAGCUAUGCCUAUCAAAAGCCUGAGGAAACAACCAGGUCCCCAGAUGAAGAAGAUUAUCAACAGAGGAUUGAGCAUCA	0.259
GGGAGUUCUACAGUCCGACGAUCGAAGAAGGGCUGAAGACAGCUGAUCCCCAUGACUGCUCUGCUUAUACUGGCUGGACAGGCAUAGCCCUUUUGUACCUGCAGUUGUACCGGGUCACAUGUGACCAAACCUACCUGCUCCGACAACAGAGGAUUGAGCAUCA	0.0662
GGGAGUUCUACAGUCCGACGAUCUCAUGGUGUGAAAUAUAUCUACCCAAAGAGGUAACAUCCUAUAAAUAGUAGUAAUUAAUUUAGCUGCAACCUUUUUAGGUAUUAAAUUACAUGACAAACAGUUAAAAUGAAUUUAAGAAUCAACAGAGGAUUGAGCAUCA	10.4
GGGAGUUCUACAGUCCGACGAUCUUAAAAAAAUCACUAAAUUGUGCCUAAAGAACAUAACUGCCAUAUUAAUGUUUUUAUUUCUAUAGUAUUAGAAAAACAUUUAAUACUUGUAGCAUUGAUGUGUUGAUUUGAUACCAGUUGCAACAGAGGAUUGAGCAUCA	0.275
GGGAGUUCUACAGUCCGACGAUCCCUCGUGCUGCCACAGUUGUUGCUCGUGGCCCCUUGAAGUGCGUUAAGCUGGACCGACCUAGAUUUGAACGUGUUCUUGGCCCAUGCUCAGACAUCCUCAAACGAAACAUCCAGCAGUACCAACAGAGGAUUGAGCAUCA	0.192
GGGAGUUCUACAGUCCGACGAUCUGAGGUUUGGCAGAGUGCUGUUGUCCAUCUUGUUGGCCUGUCUGUGAGUUUCGAAUGUGGAUAGACAGAGGGAAUCUGAGUGCAGUUCUACUUGGAAAACCAUCUCUCCCCAGAGUAGGACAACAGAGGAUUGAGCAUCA	0.397
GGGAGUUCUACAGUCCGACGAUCGAGAAGAUUAUCUGUAACUUAAAACCAGCUUUAAAACUUCGUCUUCGAUUCAUCACACACAUUAGCAAGAUGGAGCCAGCUGCAGUGCCUCCACAAGCCAUGAACAGUGGGUCUCCAGCACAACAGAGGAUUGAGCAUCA	0.414
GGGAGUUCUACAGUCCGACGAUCUUUAUGUAUAUGAGUACACUGCAGCUGUACAGAUGGUUAUGAGCCAUCGUGGUUGCUGAGAAUAGAACUCAAGACCUCUGCUUGCUCAGCCCCGCUCCCUCGCUGUGUCCCAAAGAUUUACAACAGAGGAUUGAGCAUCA	0.426

Sample 2
Target: Fragile X messenger ribonucleoprotein 1, C-terminal low-complexity region (Fmr1, Mus musculus, UniProt P35922)
Method: RNA Bind-n-Seq
Molecule type: RNA
Medium: in vitro
Tested at: 200 nM
Setting: whole 134-nt RNA, ends assumed
Together with: 150 mM LiCl
Relative to: input library
Direction: higher = stronger binding
All molecules: 7-deaza-guanosine replaces G
Sequence	log2 enrichment
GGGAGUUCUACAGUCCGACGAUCCUCAAGUCCUGUGCUACACAUCGUAUGUACCGAAUCGGGGUUGGUUGGUUGGGAAAGUAUUAUGUUACGCCGUUCGGAUCUGCACUUCCAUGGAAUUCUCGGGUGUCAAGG	-0.437
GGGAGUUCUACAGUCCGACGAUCCACAGACAACACGCACCCACACAGAAACAGAGGGAAGGGGUUGGGAUGGGGACAGGGUGCACAGCAGGGCGGGGUAGGACCCCAGCCCCUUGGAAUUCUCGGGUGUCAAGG	0.816
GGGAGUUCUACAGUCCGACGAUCUGGGAGGUGGAUUUUGUUUAUUUUUUUAGCUCAUUUCCAGGGGUGGGAAUUUUUUUUUAAUAUGUGUCAUGAAUAAAGUUAUUUUUGAAAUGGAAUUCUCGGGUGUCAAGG	-0.268
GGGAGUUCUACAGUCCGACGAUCCACAGACAACACGCACCCACACAGACACAGAGGGAAGGGGUUGGGAUGGGGACAGGGUGCACAGCAGGGGGGGGUAGGACCCCAGCCCCUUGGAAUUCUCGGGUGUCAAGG	1.38
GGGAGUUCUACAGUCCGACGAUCUCAAGUCCUGUGCUACACAUCGUAUGUACCGAAUCGGGUUGGGGUUGGGUUGGGAAAGUAUUAUGUUACGCCGUUCGGAUCUGCACUUCCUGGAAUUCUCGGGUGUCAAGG	-0.774
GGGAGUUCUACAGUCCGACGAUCUCCUGUGCUACACAUCGUAUGUACCGAAUCAAAUUUUUUUAAACCCCCAAACCCCCAAAAAAGUAUUAUGUUACGCCGUUCGGAUCUGCAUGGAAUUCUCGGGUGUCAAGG	1.42
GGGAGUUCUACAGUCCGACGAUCACCAUGCAGGUGGGCAUCUUUGGGAAGUGGGGCAAGGGGGGGAUAGGGAGGGGGGAAACACUUUGGGAACAGGUGGUCCCAGGUCGUUUCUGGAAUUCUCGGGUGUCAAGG	0.813
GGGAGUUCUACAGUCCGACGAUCGCAGGAAGUCAAAACAAAUGGAAAUGCUUCGGAUAGUGGCAGGGGUGGGGGUUGCUAAGGAAAGGGUGGGAUGGGAGUGGGUAAAGAGUUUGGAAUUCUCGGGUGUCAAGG	1.57

Sample 3
Target: ABI1, truncated, D143A, DHFR fusion (Arabidopsis thaliana)
Method: DHFR PCA, deep sequencing
Medium: yeast
Setting: methotrexate growth selection, single substitutions
Together with: (+)-ABA 0.0091 µM
Relative to: wild-type fitted maximum
Direction: higher = stronger binding
Starting sequence: PYL1, truncated, DHFR fusion (Arabidopsis thaliana); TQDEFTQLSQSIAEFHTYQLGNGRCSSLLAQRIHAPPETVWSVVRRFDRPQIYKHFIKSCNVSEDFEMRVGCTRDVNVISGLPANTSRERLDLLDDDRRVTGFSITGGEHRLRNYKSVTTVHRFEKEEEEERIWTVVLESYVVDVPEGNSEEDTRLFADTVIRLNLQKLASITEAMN; partner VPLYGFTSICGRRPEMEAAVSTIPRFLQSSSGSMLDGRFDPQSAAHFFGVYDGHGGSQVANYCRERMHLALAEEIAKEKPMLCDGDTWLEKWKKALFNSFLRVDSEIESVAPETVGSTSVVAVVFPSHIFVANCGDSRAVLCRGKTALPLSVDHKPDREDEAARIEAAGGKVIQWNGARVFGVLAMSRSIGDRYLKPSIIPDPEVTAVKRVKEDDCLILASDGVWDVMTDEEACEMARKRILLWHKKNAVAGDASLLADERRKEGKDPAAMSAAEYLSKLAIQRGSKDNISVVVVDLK
Substitution	relative binding score
S27C	2.15%
V142F	-1.54%
L166F	-1.66%
P50S	-0.886%
L91W	1.75%
I52F	9.1%
E127K	54.8%
R24P	-1.55%
A170K	48.7%
K116I	-1.75%
G148F	-7.62%
E174L	-3.41%
Y18H	39.2%
V161Y	15.7%
R24Y	-0.454%
E127N	31.8%
R155T	2.2%
R32C	15.7%

Sample 4
Target: CCND1, cyclin fold, Cln2 fusion (human)
Method: yeast growth competition, sequencing
Medium: yeast
Setting: weak parent motif
Relative to: not given
Direction: higher = stronger binding
Starting sequence: WEE2 docking peptide (human); KELRQKLNFSYCE; partner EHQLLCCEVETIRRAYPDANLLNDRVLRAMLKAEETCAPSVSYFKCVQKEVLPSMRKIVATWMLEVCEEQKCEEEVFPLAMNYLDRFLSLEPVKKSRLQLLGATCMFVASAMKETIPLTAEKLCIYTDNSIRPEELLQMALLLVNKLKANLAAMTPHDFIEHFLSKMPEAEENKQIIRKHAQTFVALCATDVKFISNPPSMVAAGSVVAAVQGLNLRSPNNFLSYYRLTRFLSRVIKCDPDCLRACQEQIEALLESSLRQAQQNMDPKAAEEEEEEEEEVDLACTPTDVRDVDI
Substitution	normalised enrichment score
KALRQKLNFSYCE [E2A]	0.207
KELRAKLNFSYCE [Q5A]	0.252
KELRQALNFSYCE [K6A]	0.382
KELAQKLNFSYCE [R4A]	0.179
KELRQKLNFSYCA [E13A]	0.292
KELRQKLAFSYCE [N8A]	-0.065

A few entries again (sample 2):
Sequence	log2 enrichment
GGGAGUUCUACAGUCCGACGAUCUCAAGUCCUGUGCUACACAUCGUAUGUACCGAAUCGGGUUGGGGUUGGGUUGGGAAAGUAUUAUGUUACGCCGUUCGGAUCUGCACUUCCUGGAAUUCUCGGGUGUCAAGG	-0.774
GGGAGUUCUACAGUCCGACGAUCUCCUGUGCUACACAUCGUAUGUACCGAAUCAAAUUUUUUUAAACCCCCAAACCCCCAAAAAAGUAUUAUGUUACGCCGUUCGGAUCUGCAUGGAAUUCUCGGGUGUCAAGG	1.42
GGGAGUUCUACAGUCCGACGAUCACCAUGCAGGUGGGCAUCUUUGGGAAGUGGGGCAAGGGGGGGAUAGGGAGGGGGGAAACACUUUGGGAACAGGUGGUCCCAGGUCGUUUCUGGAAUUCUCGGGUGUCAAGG	0.813
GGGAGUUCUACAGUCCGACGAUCGCAGGAAGUCAAAACAAAUGGAAAUGCUUCGGAUAGUGGCAGGGGUGGGGGUUGCUAAGGAAAGGGUGGGAUGGGAGUGGGUAAAGAGUUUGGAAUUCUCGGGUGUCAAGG	1.57
